Published values of several laboratories.
Compare with care: the assays were run in different laboratories. Numbers after ± are the reported error.

Cc1ccc2cc3c(ccc4ccccc43)c3c2c1CC3
non-protective dose (adrenal apoplexy prevention; rat; oral, with: 7,12-DMBA 5 mg i.v.): 0.1 mg

Cc1cc(O)cc(C)c1C[C@H](N)C(=O)N[C@@H]1CCNc2ccc(CC3CCCCC3)cc21
antinociception (warm water tail withdrawal; C57BL/6 mice; intraperitoneal, up to 10 mg/kg cumulative): inactive

C=CC(=O)N1CCC([C@@H]2CCNc3c(C(N)=O)c(-c4ccc(Oc5ccccc5)cc4)nn32)CC1
progression-free survival difference (Chinese patients, relapsed/refractory B-cell malignancies; 160 mg twice daily vs 320 mg once daily, log-rank test): no effect

NCC(=O)Nc1cncc(-c2nn3c(=O)cc(N4CCNCC4)nc3s2)c1
time to platelet recovery (platelet function, VerifyNow iso-TRAP; STEMI patients; subcutaneous, 0.075 to 0.11 mg/kg; return to 50% inhibition): ~90 min

COC[C@@H](NC(C)=O)C(=O)NCc1ccc(-c2cccc(F)c2)cc1
paw withdrawal threshold (von Frey; Sprague-Dawley rat, tibial nerve injury; ip, 10 mg/kg, 14 days after injury): 40 ± 4.9 mN

C=CP(=O)(Nc1ccccc1)OCC(F)(F)F (stereo not drawn)
second-order rate constant (UPLC; pH 8.5, with: glutathione): 0.021 M⁻¹ s⁻¹

COc1ncc(-c2nc(C(=O)NC(=N)N)c(N)nc2N2CCCCCC2)cn1
urine volume (Sprague-Dawley rat; iv, 1.5 mg/kg, 6 h, with: acetazolamide 25 mg/kg; baseline: acetazolamide alone): no effect

O=S(=O)(F)Cc1ccccc1
protease cleavage (bait peptide cleavage, inhibitor, MALDI-TOF/TOF; Medicago truncatula culture fluid; 1 mM, 2 h, 4 °C): inhibited

O=C1[O][Pt]2([NH][C@@H]3CCCC[C@H]3[NH]2)[O]C1=O (relative stereo)
tumour growth inhibition (BALB/c mice, CT26 tumour; oral, 10 mg/kg once daily, 21 days; baseline: control group): 34.8%

COc1cc2cc(c1Cl)N(C)C(=O)C[C@H](OC(=O)[C@H](C)N(C)C(=O)CCS)[C@]1(C)O[C@H]1[C@H](C)[C@@H]1C[C@@](O)(NC(=O)O1)[C@H](OC)/C=C/C=C(\C)C2
survival (NSG mice, orthotopic UMUC3 bladder tumour; intravenous, 0.75 mg/kg weekly, 100 days, 3 weeks): 0%

O=c1cc(-c2ccc(O)cc2)oc2cc(O)cc(O)c12
IC50 (ABTS scavenging, absorbance; 15 min): 52.9 µM

CC(C)(NC(=O)O[C@@H]1CN2CCC1CC2)c1csc(-c2ccc(F)cc2)n1
glucosylsphingosine median (sample A patients, CSF; oral, 15 mg once daily, week 52, with: imiglucerase): 11.5 pg/mL

CCCN1CCC[C@@H]2Cc3n[nH]cc3C[C@H]21
dose for full substitution (cocaine-appropriate responding, drug discrimination; male rats trained on cocaine; intraperitoneal, BMS, with: cocaine 10 mg/kg training dose): 0.061 to 0.18 mg/kg

Nc1ncnc2c1ncn2[C@@H]1O[C@H](COP(=O)(O)CP(=O)(O)O)[C@@H](O)[C@H]1O
CD73 release into medium (dot blot, measured: soluble CD73; culture medium; range over 1 to 100 µM, 15 min, rat cells): no effect

C[C@@H]1NC(C)(C)CO[C@@]1(O)c1cccc(Br)c1
AD50 (nicotine-induced hypothermia, antagonist; mouse; 15 min pretreatment, with: nicotine 2.5 mg/kg s.c.): 1.7 mg/kg

Some of these lines once more:
COc1cc2cc(c1Cl)N(C)C(=O)C[C@H](OC(=O)[C@H](C)N(C)C(=O)CCS)[C@]1(C)O[C@H]1[C@H](C)[C@@H]1C[C@@](O)(NC(=O)O1)[C@H](OC)/C=C/C=C(\C)C2
survival (NSG mice, orthotopic UMUC3 bladder tumour; intravenous, 0.75 mg/kg weekly, 100 days, 3 weeks): 0%
